Assay results gathered from unrelated publications.
Parts stem from different laboratories: compare values within a part only.
UniProt Q92985, sequence (whole entry, unmodified, looked up): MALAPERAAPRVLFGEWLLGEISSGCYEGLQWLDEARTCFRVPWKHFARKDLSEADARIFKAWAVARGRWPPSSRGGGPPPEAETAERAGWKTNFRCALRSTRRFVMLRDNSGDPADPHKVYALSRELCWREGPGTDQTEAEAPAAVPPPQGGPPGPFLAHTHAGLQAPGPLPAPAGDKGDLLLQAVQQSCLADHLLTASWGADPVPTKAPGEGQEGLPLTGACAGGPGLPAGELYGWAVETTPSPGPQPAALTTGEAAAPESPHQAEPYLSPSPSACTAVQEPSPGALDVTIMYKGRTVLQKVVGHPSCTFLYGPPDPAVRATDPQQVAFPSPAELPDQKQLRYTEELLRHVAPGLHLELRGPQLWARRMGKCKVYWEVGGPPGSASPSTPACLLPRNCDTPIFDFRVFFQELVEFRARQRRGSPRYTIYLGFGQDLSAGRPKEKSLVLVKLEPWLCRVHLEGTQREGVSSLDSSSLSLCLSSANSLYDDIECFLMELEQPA

Block 1
Target: Sal-like protein 4, full length isoform A (SALL4, Homo sapiens, UniProt Q9UJQ4, residues 1-1053)
UniProt Q9UJQ4, sequence (whole entry, looked up): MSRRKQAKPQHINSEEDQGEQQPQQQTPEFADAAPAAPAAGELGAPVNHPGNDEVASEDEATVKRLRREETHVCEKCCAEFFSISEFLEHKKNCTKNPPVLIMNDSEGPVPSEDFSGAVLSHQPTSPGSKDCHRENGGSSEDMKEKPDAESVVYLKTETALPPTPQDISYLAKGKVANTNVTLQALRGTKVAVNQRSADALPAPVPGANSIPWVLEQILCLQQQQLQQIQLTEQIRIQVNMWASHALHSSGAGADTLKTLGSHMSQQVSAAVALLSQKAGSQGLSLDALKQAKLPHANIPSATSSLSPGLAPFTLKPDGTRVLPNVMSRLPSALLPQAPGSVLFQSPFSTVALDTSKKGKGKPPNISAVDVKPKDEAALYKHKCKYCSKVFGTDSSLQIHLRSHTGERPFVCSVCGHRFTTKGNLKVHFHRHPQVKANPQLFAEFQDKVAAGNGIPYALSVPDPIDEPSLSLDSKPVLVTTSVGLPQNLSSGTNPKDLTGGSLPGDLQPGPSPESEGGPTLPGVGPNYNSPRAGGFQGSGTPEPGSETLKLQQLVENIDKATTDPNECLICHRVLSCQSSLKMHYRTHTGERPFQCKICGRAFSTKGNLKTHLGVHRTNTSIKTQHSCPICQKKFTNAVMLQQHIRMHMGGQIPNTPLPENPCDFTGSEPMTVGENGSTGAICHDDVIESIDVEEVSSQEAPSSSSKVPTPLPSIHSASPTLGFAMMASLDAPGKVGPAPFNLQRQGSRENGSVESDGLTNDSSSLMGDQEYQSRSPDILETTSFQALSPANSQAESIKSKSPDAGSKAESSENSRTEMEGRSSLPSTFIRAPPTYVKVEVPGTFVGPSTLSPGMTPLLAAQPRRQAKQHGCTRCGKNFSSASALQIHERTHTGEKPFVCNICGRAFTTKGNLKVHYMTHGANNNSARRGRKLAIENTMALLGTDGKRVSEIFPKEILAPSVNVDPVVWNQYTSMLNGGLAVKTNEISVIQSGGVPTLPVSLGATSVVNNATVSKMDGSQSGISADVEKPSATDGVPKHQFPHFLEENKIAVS
Technique: universal PBM
Form: double-stranded DNA, one strand shown
Matrix: in vitro
Concentration: 600 nM
Setting: 8-mer, flanks averaged, mean of replicates
Direction: higher = stronger binding
| Sequence | E-score |
| --- | --- |
| CACGCGTA | -0.14 |
| GGCCGACC | -0.391 |
| AAGGCTTG | -0.0872 |

Block 2
Target: Histone acetyltransferase KAT6A, both winged helices, GST fusion (KAT6A, Homo sapiens, UniProt Q92794, residues 1-181)
Technique: protein binding microarray
Form: double-stranded DNA, one strand shown
Matrix: in vitro
Concentration: not given
Setting: 8-mer, flanks averaged, mean of 2 arrays, mostly near background
Relative to: not given
Direction: higher = stronger binding
Residues (chain): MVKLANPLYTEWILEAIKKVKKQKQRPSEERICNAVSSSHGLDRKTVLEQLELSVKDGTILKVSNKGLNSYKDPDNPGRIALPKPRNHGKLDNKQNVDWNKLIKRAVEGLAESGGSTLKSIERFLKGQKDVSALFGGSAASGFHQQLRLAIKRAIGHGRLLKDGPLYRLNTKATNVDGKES
| Sequence | E-score |
| --- | --- |
| TACGGATA | 0.125 |
| ATTTGACA | -0.00441 |
| CGGGTAAA | 0.163 |

Other studies, line by line
IRF5 S451D/S453D/S456D/S462D full length, phosphomimetic: Interferon regulatory factor 5, full length, phosphomimetic (IRF5, Homo sapiens, UniProt Q13568-2, residues 1-514, S451D/S453D/S456D/S462D)
| Substance | target | assay | system | setting | how to read | measurement | value |
| --- | --- | --- | --- | --- | --- | --- | --- |
| GCCTAGCACTCATCCTTTGCTTTCTCACTGTGCTAGGTCTTGATTCGCTTGACGCTGCTG | IRF5 S451D/S453D/S456D/S462D full length, phosphomimetic | protein-binding microarray | double-stranded DNA, one strand shown, in vitro | 940 nM top, 60-bp whole probe, added: salmon DNA 0.4 mg/ml | relative to: random background probes, higher = stronger binding | fitted relative affinity | 1.34 z-score |
| PhoQ, residues 284 288 289 292 302 303 SLGVVW | PhoP, residues 12 14 15 18 19 IQSYL (Escherichia coli, UniProt P23836) | Sort-seq, item: YFP reporter | E. coli | PhoQ-PhoP variant library, added: 10 µM Mg2+ | relative to: high Mg2+ state, higher = stronger signaling | fold induction | 17.4 |
| GCCTAGCACTGTTGTCTTAGATTCCTTTGGTGCTAGGTCTTGATTCGCTTGACGCTGCTG | IRF5 S451D/S453D/S456D/S462D full length, phosphomimetic | protein-binding microarray | double-stranded DNA, one strand shown, in vitro | 940 nM top, 60-bp whole probe, added: salmon DNA 0.4 mg/ml | relative to: random background probes, higher = stronger binding | fitted relative affinity | 0.605 z-score |
| GCCTAGCACTGAGGTCTCCTTTTCCTTTAGTGCTAGGTCTTGATTCGCTTGACGCTGCTG | Interferon regulatory factor 7, full length, phosphomimetic (IRF7, Homo sapiens, UniProt Q92985, residues 1-503, S471D/S472D/S475D/S476D/S477D/S483D/S484D/S487D) | protein-binding microarray | double-stranded DNA, one strand shown, in vitro | 2200 nM top, 60-bp whole probe, added: salmon DNA 0.4 mg/ml | relative to: random background probes, higher = stronger binding | fitted relative affinity | 1.7 z-score |

A few entries again (other studies, line by line):
| Substance | target | assay | system | setting | how to read | measurement | value |
| --- | --- | --- | --- | --- | --- | --- | --- |
| PhoQ, residues 284 288 289 292 302 303 SLGVVW | PhoP, residues 12 14 15 18 19 IQSYL (Escherichia coli, UniProt P23836) | Sort-seq, item: YFP reporter | E. coli | PhoQ-PhoP variant library, added: 10 µM Mg2+ | relative to: high Mg2+ state, higher = stronger signaling | fold induction | 17.4 |
